Experimental data pooled from the literature.
Numbered parts are unrelated; each lists some results of a single study.

Block 1 — method: protein-binding microarray; molecule type: double-stranded DNA, one strand shown; medium: in vitro; concentration: 2540 nM top; setting: 60-bp whole probe; added: salmon DNA 0.4 mg/ml; reference: random background probes; reading: higher = stronger binding; shared flanks, not repeated: GCCTAGCAC … GTCTTGATTCGCTTGACGCTGCTG
Target: Interferon regulatory factor 3, full length, phosphomimetic (IRF3, Homo sapiens, UniProt Q14653, residues 1-427, S386D/S396D/S398D/S402D/T404D/S405D)
Chain of UniProt Q14653 (whole entry, unmodified, looked up): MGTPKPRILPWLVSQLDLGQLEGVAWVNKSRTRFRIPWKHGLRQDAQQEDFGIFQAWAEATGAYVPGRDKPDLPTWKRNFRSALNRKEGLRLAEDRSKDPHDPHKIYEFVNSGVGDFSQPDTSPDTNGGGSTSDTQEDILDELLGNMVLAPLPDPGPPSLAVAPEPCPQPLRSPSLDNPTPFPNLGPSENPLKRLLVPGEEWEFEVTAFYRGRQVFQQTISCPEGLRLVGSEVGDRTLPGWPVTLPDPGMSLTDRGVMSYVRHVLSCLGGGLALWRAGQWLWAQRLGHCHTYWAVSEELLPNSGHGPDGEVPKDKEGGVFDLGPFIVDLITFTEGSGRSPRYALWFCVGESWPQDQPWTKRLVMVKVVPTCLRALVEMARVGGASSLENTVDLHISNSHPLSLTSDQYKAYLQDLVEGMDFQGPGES
Oligonucleotide | fitted relative affinity [z-score]
GACGGACTCCTTTTCCTGACGTGCTAG | 2.53
TTAAATCTCAGTATCGATTAGTGCTAG | 1.15
GACGGTATCGGGTTACGGGACGTGCTA | 2.27
GGGCCGAGGCTGTGGCCACCGTGCTAG | -1.17
CTGTTTCTGTGTCACAGAGGGTGCTAG | 3.96
GACGAACTGAGACTAGAGACGTGCTAG | -0.133
GCCGGTATCGACACTGGGGACGTGCTA | 0.976
TCAGGACTGCTACTGCTTTAGTGCTAG | -0.584
CGCTCTGTGCTCTTTGGGCTGTGCTAG | -0.285
TCAATCCTTCATTTGAAACTGTGCTAG | 0.485
GACGGATTCGGTTCCGGGACGTGCTAG | 4.57

Block 2 — method: RNA Bind-n-Seq; molecule type: RNA; medium: in vitro; concentration: 365 nM; reference: no-protein control; reading: higher = stronger binding
Target: RNA binding protein fox-1 homolog 2, RRM domain, GST-SBP tag (RBFOX2, Homo sapiens, UniProt O43251-10, residues 100-194)
Setting: natural RNA segment, single round, ends assumed
Shared flanks, not repeated: GGGAGUUCUACAGUCCGACGAUC … UGGAAUUCUCGGGUGCCAA
Construct (chain): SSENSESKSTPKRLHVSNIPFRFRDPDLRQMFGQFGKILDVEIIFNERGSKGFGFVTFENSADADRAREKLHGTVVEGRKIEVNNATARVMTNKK
Oligonucleotide | RBNS enrichment (R)
UGUCUUUAAGAAAAAGAAAUCAAUCUGCAGAAAUGUGAAGAUUUGCAAGCAGUGUAAACUGCAACUAGUGAUGUAAAUGUGCUAUUACCUAGGUAACUGCAUAUAUAUAA | 0.713
GAGGCUCCCACCCACAGGGCUGUCUGUCACAAACCCACCUCUGUUGGGAGCUAUUGAGCCACCUGGGAUGAGAUGACACAAGGCACUCCUACCACUGAGCGCCUUUGCCA | 0.161
UGUUCAUGGCCUGUAAGUGUACCCCAAGCACUGUGGGCGGGAGCUACCACUUCUUUGAGAACCUCUGCUUUACGGUUGACACUGAUGCUUAUCUUUCUCUGGAGUUACGG | 0.324
GGCCACUCUCACUCCAGUGCCCCCCAGAGACCCCAGCCAGAUGGCUCAGACUGUCCUGCAUGAAGGCAGGAGAGCUGAACUCUCUCUGGUCCUUGUCUUUCCCAAUCUUU | 0.564
AGGUUACCCUUGUUUUUCAAAGGUAUUUUUUAAACAGAUCUUUAAUAGAAUAUUUAAGCUGUGACUGUAAGAAAUAAACAAGAGUAAACUGACAGGCCUUCCUUCACGUG | 0.524
AUAGUGUAUAACCUUGUGUUCAUGAAACAGGUUGUUCAUUGUUCUGCAUCUCUCUUCAUUUAAAAAGGAUACACAAUUCUUUCCUCAUUGCAUAUUACACCAAACGUUUG | 1.2
AGACCACGCCCGUCCUGCCUGUGGCGCCGUCUCCAGGGGCUGCUUCCUCCUGGAAAUUGACGAGGGGUGUCUUGGGCAGAGCUGGCUCUGAGCGCCUCCAUCCAAGGCCA | 0.399
CUGAUCCUAAGAAGGGGGCCUGGGGGUGCGUGCAGCCUGUCGGGGAGACCCCACUCUGACAGUGGGCACACGGCAGCCUGCAAAGCACAGGGCCACCGCCACAGCCCGGC | 0.376

Single results of other studies
Molecule | target or system | test | test system | conditions | scale | measurement | result
CCT8 (Homo sapiens, UniProt P50990) | CCT7 (Homo sapiens, UniProt Q99832) | cross-linking MS | cell fractions | added: DSSO |  | cross-linked residues | K62 to K77
PhoQ, residues 284 288 289 292 302 303 SSTLSG | PhoP, residues 12 14 15 18 19 LHHSG (Escherichia coli, UniProt P23836) | Sort-seq, refers to: YFP reporter | E. coli | PhoQ-PhoP variant library, added: 10 µM Mg2+ | reference: high Mg2+ state, higher = stronger signaling | fold induction | 6.81
KTN1 (Homo sapiens, UniProt Q86UP2) | SSR3 (Homo sapiens, UniProt Q9UNL2) | cross-linking MS | cell fractions | added: DSSO |  | cross-linked residues | K46 to K8

Repeated from above (block 1):
Oligonucleotide | fitted relative affinity [z-score]
GACGAACTGAGACTAGAGACGTGCTAG | -0.133
GCCGGTATCGACACTGGGGACGTGCTA | 0.976
TCAGGACTGCTACTGCTTTAGTGCTAG | -0.584
